Results gathered from unrelated publications.
Each numbered part is a random draw from the data of one study; scales do not carry over between parts.

Series 1
Target: Interferon regulatory factor 5, full length, phosphomimetic (IRF5, Homo sapiens, UniProt Q13568-2, residues 1-514, S451D/S453D/S456D/S462D)
Technique: protein-binding microarray
Form: double-stranded DNA, one strand shown
Sample: in vitro
Tested at: 940 nM top
Notes: 60-bp whole probe
With: salmon DNA 0.4 mg/ml
Reference: random background probes
Reading: higher = stronger binding
All sequences stand within: GCCTAGCAC … GTCTTGATTCGCTTGACGCTGCTG
`CCACATATGCTTTTTAGAAAGTGCTAG` — result for “fitted relative affinity”: 0.467 z-score.
`GACCGACTGGACTTTCGGGACGTGCTA`: “fitted relative affinity” 1.01 z-score.
Under “fitted relative affinity”, `TTAGGACTGCTTCTCCTCTAGTGCTAG` is recorded as -0.126 z-score.
For `ATGACCTCACTGCCTGACACGTGCTAG`, “fitted relative affinity” read -0.0981 z-score.
For `TTCGGTTTCGGTCTCGGTTAGTGCTAG`, “fitted relative affinity” read 14.2 z-score.
`GACGGACTGGGTCGCGGGACGTGCTAG`: “fitted relative affinity” -0.75 z-score.
For `CTGGCCTGGGGTCTGCAGAGGTGCTAG`, “fitted relative affinity” read -0.792 z-score.
`GACGGTATCCTTATCCTTACGTGCTAG` — result for “fitted relative affinity”: 0.384 z-score.
`CTAGGTCTCCTTATCCTTTAGTGCTAG` — result for “fitted relative affinity”: 0.474 z-score.
`GACCGTTTCGACTTTCGGGACGTGCTA`: “fitted relative affinity” 3.67 z-score.
Under “fitted relative affinity”, `GACGTTCTCAGTATCGAGACGTGCTAG` is recorded as 2.79 z-score.
For `TCATATTTATTTTTACAACTGTGCTAG`, “fitted relative affinity” read 0.779 z-score.
Under “fitted relative affinity”, `GACTGTTTCGGGTTTCGGGACGTGCTA` is recorded as 4.81 z-score.
For `TTAGGTTCCGGGTTTCGGTTAGTGCTA`, “fitted relative affinity” read 6.24 z-score.
Under “fitted relative affinity”, `AAGACTTTGCTCTGTGCGTAGGTGCTA` is recorded as -0.614 z-score.
`GACGGTTTCGGTATCGAGACGTGCTAG`: “fitted relative affinity” 13.1 z-score.
For `GACGGTCTCGGGATCGGGACGTGCTAG`, “fitted relative affinity” read 1.33 z-score.
For `TCATGTTTGTCACTCTCAGAGTGCTAG`, “fitted relative affinity” read 0.721 z-score.
Under “fitted relative affinity”, `TTAGGCTTCGACTTTCGGTTAGTGCTA` is recorded as 2.05 z-score.

Series 2
Target: Centromere-binding protein 1, full length, His-tagged (CBF1, Saccharomyces cerevisiae, UniProt P17106, residues 1-351)
Sequence of UniProt P17106 (whole entry, looked up): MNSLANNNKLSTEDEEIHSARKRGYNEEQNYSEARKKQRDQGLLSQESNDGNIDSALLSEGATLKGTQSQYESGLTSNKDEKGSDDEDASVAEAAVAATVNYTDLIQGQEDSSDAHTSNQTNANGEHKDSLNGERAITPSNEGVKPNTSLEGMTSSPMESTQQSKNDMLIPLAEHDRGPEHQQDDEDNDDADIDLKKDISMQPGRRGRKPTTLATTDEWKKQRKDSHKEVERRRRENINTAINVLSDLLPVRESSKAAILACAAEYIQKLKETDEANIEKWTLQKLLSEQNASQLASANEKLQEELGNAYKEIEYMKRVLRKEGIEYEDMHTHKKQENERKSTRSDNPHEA
Technique: competition protein-binding microarray
Form: double-stranded DNA, one strand shown
Sample: in vitro
Tested at: 2 µM
Notes: whole 60-bp probe, lowest competitor level
With: Pho4 competitor, 0.05 µM
Reading: higher = stronger binding
With `TGCGCAACAACTTGCAGGGTGGGTGTATGTCTAGAAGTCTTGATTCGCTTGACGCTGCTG` the fluorescence intensity was 62.2 a.u.
`TGGACCTCTGACGGTAACGTGAAGAGCAATTTTTTCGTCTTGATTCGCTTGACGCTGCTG` gave a fluorescence intensity of 125 a.u.
`CTGTGTGCCATTAGCCATGTGATGGGCCTATTAATGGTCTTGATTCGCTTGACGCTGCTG` has a fluorescence intensity of 446 a.u.
For `CCGCTTTGGAATTTATTCGTGCCGAAAAGACTCAAGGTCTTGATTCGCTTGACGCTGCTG`, the fluorescence intensity was 68.3 a.u.
`AACCTCGGGGCTTGGGGCGTGGGACATCGAAAGGGGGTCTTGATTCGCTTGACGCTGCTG` gave a fluorescence intensity of 105 a.u.
`ATCATCATACATTTGCACGTGGCCGTTACATTTTTCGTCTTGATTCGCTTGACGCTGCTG` has a fluorescence intensity of 1380 a.u.
`ACAATAGGGTTTCGTCACGTAATAAGCAACGTACAGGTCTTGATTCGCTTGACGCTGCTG` gave a fluorescence intensity of 104 a.u.
With `CGGGGTTAAGTTTTTCACGTGCACTGCTTGCAGCAGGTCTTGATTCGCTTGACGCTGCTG` the fluorescence intensity was 837 a.u.
With `AAATTACTAAGTTGTTCTGTGGGTGACGCCGTATGAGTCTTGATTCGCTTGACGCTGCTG` the fluorescence intensity was 66.2 a.u.
For `CTTCTGTAAATTTGGTCGGTGGGTGGACGCGCCCCGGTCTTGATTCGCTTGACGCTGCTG`, the fluorescence intensity was 77.9 a.u.
The fluorescence intensity of `TGAAGAGTGTTGTTTCATGTGACAGTGAATGCCATTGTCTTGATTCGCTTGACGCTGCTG` is reported as 417 a.u.
`AGATTTATGGCTTTCCATGTGGTTAAAGAAAAATTGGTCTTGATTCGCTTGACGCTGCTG` gave a fluorescence intensity of 115 a.u.
With `TTGTAGTTGTTGCTGTTGAGGTGGCAGTTGAGAGCTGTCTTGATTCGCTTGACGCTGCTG` the fluorescence intensity was 69.9 a.u.
The fluorescence intensity of `TGCGCAACAACTTGTCACCCCACTTTATGTCTAGAAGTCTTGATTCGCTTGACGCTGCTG` is reported as 76.7 a.u.
`CTTCTGTAAATTTGTCGAGTGGGTGGACGCGCCCCGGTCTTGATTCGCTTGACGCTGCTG` gave a fluorescence intensity of 63 a.u.
`TGCGCAACAACTTGCCGCGTGGGTGTATGTCTAGAAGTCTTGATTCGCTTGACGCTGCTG` gave a fluorescence intensity of 78.6 a.u.
For `AAATTACTAAGTTGGAGAGTGGGTGACGCCGTATGAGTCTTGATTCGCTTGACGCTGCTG`, the fluorescence intensity was 68.4 a.u.
The fluorescence intensity of `CAGGCTGGTGCGCAGCACATGGCCGGGCTCCGGGTGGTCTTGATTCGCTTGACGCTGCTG` is reported as 67 a.u.
`AAATTACTAAGTTTTCACGTGCTATACCCCGTATGAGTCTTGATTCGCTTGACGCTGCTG` has a fluorescence intensity of 1400 a.u.

Series 3
Target: RNA binding protein fox-1 homolog 2, RRM domain, GST-SBP tag (RBFOX2, Homo sapiens, UniProt O43251-10, residues 100-194)
Technique: RNA Bind-n-Seq
Form: RNA
Sample: in vitro
Tested at: 365 nM
Notes: natural RNA segment, single round, ends assumed
Reference: no-protein control
Reading: higher = stronger binding
Residues (chain): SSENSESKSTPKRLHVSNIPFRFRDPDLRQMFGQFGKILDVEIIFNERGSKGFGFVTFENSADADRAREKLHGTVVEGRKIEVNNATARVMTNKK
`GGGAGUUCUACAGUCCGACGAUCGACGGAUGAUAUAUAAUGAUAAUAGAAUAGCACAUUCAGACUUACUUCCUGCAUGAUAGGGAGAGACAAGAAAGAAGAAAUGCUAUUCCACAAGGAAUCUCUUAGAGUUUUGGAAUUCUCGGGUGCCAA` — result for “RBNS enrichment (R)”: 8.68.
For `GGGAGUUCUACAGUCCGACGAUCAACUGAUGAUUGAAGAGUAAAUGGGGGAAAAGGCAGUGUUUAAUUAACAUAAAAACUCAUUUUUGUAUUUCUUGGAUUACUUUGACUAUUCUAAUGUUUAAUUACAUAUGUGGAAUUCUCGGGUGCCAA`, “RBNS enrichment (R)” read 0.593.
Under “RBNS enrichment (R)”, `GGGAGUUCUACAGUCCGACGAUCGUCCUUGCUGGGAUUUCCUUUUGGGAACCUGACUUUCCGACUCCAGAUCCUGCUGUCUGGAUCAGUGUUCUGGCUGGAGGUGCUGGAUUCUCUGAUUUUGCCUCCUCACUUGGAAUUCUCGGGUGCCAA` is recorded as 0.359.
Under “RBNS enrichment (R)”, `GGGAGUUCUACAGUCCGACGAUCCCUGGAGAGAAGAACUGUGUCCUUUACUGUAUUUCAACAGGACUCUUUUGGGGGAUCAAAAUUAAAAUUCCUAAUUAUGCAUUAUCUUUCUUUUCUCCAGUCCUCACAAAUGGAAUUCUCGGGUGCCAA` is recorded as 0.795.
`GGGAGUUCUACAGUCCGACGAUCCAACUCAUGCCACAGUAUGUCGUCUUCAUGUGUCUUGCAAUGAACUGUUUCAGUAGCCAAUCCUCUUUCUUAGUAUAUGAAAGGACAGGGAUUUUUGUUCUUGUUGUUCUUGGAAUUCUCGGGUGCCAA` — result for “RBNS enrichment (R)”: 1.32.
`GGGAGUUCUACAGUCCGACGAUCUGCCUCAGGGCCUGGCCCUCCUGCAUGCUAUGCCCGGGGCAGGCCUGACGGGCAGCUGAGGAUUGCAGAGCCUGUCUGCCUUACGGCCAGUCGGACAGACGUCCCGCCACUGGAAUUCUCGGGUGCCAA` — result for “RBNS enrichment (R)”: 1.92.
Under “RBNS enrichment (R)”, `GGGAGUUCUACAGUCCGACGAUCCUGGCCUGGCCAGCAGUCUGCAUGCUGAAGCUGCACCAAAGACAAGCGAAUGGGUCAUUUCUAAAGAGACCAGGGAGCCCACUCCUCAUGGGCUCUCCGUGGUGAAGAACUGGAAUUCUCGGGUGCCAA` is recorded as 13.8.
`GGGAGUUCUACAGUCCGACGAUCGCUCUUCAGCAUGGCAGGACGUGUAAUGAGGGCUUUCGCAAGUCCUUCAGCGCUGCAGAGCAGUAAGCUAUCCAUCCAGUGAGUGUGGCGGCUCUUUCUACAGCUGAACUUGGAAUUCUCGGGUGCCAA` — result for “RBNS enrichment (R)”: 0.572.

Series 4
Target: RING finger protein unkempt homolog, zinc fingers 1-6, GST-SBP tag (UNK, Homo sapiens, UniProt Q9C0B0, residues 30-357)
Sequence of UniProt Q9C0B0 (30-357, looked up): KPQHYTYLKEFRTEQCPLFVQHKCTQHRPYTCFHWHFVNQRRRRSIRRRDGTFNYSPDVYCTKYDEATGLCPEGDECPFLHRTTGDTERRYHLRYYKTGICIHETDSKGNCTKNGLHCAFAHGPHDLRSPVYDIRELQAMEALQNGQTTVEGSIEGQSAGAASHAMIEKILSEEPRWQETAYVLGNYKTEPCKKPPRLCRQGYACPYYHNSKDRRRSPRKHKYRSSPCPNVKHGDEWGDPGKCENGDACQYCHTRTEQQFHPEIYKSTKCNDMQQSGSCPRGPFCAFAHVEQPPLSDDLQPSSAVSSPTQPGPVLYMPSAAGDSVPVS
Technique: RNA Bind-n-Seq
Form: RNA
Sample: in vitro
Tested at: not given
Notes: RNA with constant flanks, human and mouse sites, ends assumed
Reference: input RNA pool
Reading: higher = stronger binding
With `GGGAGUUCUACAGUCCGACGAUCUGAAGAUCUGUACCUGUGCACAGUGAGCUUCAAAACAAAACACAAUUGAGCUUACGUUUGUUAGCAGGCGUAGAGUAUUCAUUACGUAAUGAAGUACUUAAGCAGCUACAGGGAAGUAUUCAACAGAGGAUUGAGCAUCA` the bound/input enrichment was 0.105 ratio.
For `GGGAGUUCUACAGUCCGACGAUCCAUACGCUGGCCGCCUAUUACCCGGACAGGCCCACGCCAGAACAACAACAGGAUAUGGCCCAGUUCAUACAUAUAUUUUCCAAGUUUUACCCCUGCGAGGAAUGUGCGGAAGACAUAAGGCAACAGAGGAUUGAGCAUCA`, the bound/input enrichment was 0.22 ratio.
The bound/input enrichment of `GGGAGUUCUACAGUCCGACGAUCCUAAAGAUAAGCAAUUUAAAGAAAAUUUUAAAAGGAAUCUUGGAUUAUAAUCAUGAGAUUUUAGGACAGCAAAUUAAUGACUUUACCCUUCCUGAUGUGAACCUUAUUGGGGAGCAUUCUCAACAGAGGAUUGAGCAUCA` is reported as 1.85 ratio.
For `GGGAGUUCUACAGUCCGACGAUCAUGCAUGAGCCGCCCCACAUUCCCACUCCUGUAUGUAUCGGACACAGAGACGCUCCCUCCUUCUCCUCCCCGCCACGCCAGGCCCCCGAGCCUUCCCUCUUCUUCCAGGAUCCUCCUGGGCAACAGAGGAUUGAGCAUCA`, the bound/input enrichment was 0.504 ratio.
`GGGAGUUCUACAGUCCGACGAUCACCGCCAUCUACUGCUUCCUGCGCUGCAUGGAGCCUCACCCUGAGAUCCCCUCCACCUUCAACAGUCUCCAGAGGACUCUCAUCUACUCCAUCUCACUUGGUGGGGACACAGACACCAUACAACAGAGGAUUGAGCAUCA` has a bound/input enrichment of 0.238 ratio.
With `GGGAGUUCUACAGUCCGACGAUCCCAGGACCGAGGGAGUUGAGGAUGUGACCCAGGACGGGGGGCGGGGGGGGGGGUUGUGUGUGUGGAAGGGUGGGAAGAGGCAGGAAGGCCUUGGAAGCUAACAUGCUUUCGCUACUGGAGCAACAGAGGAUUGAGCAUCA` the bound/input enrichment was 0.165 ratio.
With `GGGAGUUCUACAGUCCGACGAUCUAUACCCCUCCUCUCCAGUCACCAAUUACAGAUGGCGAUCCUUUACUGGGGCAGUCACCUUGGAGAAGUAAAGUUUCUGGCUCUGACACGGAGACGUUAGGAGGCUUUCCAGUGGAAUUCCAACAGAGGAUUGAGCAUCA` the bound/input enrichment was 0.239 ratio.
For `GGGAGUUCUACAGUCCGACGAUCGUUGCUUAUGAACGUGGCCAGUGUGACCUGGAGCUCAUCAAUGUUUGCAAUGAGAAUUCCCUCUUCAAAAGCCUUUCUCGCUACUUAGUCCGUCGAAAGGAUCCAGAAUUGUGGGGUAGUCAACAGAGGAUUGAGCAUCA`, the bound/input enrichment was 0.156 ratio.

A few entries again (series 2):
For `CCGCTTTGGAATTTATTCGTGCCGAAAAGACTCAAGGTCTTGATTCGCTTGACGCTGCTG`, the fluorescence intensity was 68.3 a.u.
`AACCTCGGGGCTTGGGGCGTGGGACATCGAAAGGGGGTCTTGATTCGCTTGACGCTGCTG` gave a fluorescence intensity of 105 a.u.
`ATCATCATACATTTGCACGTGGCCGTTACATTTTTCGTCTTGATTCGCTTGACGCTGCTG` has a fluorescence intensity of 1380 a.u.
`ACAATAGGGTTTCGTCACGTAATAAGCAACGTACAGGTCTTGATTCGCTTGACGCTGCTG` gave a fluorescence intensity of 104 a.u.
With `CGGGGTTAAGTTTTTCACGTGCACTGCTTGCAGCAGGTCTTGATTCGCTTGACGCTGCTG` the fluorescence intensity was 837 a.u.
With `AAATTACTAAGTTGTTCTGTGGGTGACGCCGTATGAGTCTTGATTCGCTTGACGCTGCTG` the fluorescence intensity was 66.2 a.u.
For `CTTCTGTAAATTTGGTCGGTGGGTGGACGCGCCCCGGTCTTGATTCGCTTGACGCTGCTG`, the fluorescence intensity was 77.9 a.u.
